# Measured values gathered from unrelated publications.
# Parts stem from different laboratories: compare values within a part only.
# Chain of UniProt Q5S007 (whole entry, unmodified, looked up): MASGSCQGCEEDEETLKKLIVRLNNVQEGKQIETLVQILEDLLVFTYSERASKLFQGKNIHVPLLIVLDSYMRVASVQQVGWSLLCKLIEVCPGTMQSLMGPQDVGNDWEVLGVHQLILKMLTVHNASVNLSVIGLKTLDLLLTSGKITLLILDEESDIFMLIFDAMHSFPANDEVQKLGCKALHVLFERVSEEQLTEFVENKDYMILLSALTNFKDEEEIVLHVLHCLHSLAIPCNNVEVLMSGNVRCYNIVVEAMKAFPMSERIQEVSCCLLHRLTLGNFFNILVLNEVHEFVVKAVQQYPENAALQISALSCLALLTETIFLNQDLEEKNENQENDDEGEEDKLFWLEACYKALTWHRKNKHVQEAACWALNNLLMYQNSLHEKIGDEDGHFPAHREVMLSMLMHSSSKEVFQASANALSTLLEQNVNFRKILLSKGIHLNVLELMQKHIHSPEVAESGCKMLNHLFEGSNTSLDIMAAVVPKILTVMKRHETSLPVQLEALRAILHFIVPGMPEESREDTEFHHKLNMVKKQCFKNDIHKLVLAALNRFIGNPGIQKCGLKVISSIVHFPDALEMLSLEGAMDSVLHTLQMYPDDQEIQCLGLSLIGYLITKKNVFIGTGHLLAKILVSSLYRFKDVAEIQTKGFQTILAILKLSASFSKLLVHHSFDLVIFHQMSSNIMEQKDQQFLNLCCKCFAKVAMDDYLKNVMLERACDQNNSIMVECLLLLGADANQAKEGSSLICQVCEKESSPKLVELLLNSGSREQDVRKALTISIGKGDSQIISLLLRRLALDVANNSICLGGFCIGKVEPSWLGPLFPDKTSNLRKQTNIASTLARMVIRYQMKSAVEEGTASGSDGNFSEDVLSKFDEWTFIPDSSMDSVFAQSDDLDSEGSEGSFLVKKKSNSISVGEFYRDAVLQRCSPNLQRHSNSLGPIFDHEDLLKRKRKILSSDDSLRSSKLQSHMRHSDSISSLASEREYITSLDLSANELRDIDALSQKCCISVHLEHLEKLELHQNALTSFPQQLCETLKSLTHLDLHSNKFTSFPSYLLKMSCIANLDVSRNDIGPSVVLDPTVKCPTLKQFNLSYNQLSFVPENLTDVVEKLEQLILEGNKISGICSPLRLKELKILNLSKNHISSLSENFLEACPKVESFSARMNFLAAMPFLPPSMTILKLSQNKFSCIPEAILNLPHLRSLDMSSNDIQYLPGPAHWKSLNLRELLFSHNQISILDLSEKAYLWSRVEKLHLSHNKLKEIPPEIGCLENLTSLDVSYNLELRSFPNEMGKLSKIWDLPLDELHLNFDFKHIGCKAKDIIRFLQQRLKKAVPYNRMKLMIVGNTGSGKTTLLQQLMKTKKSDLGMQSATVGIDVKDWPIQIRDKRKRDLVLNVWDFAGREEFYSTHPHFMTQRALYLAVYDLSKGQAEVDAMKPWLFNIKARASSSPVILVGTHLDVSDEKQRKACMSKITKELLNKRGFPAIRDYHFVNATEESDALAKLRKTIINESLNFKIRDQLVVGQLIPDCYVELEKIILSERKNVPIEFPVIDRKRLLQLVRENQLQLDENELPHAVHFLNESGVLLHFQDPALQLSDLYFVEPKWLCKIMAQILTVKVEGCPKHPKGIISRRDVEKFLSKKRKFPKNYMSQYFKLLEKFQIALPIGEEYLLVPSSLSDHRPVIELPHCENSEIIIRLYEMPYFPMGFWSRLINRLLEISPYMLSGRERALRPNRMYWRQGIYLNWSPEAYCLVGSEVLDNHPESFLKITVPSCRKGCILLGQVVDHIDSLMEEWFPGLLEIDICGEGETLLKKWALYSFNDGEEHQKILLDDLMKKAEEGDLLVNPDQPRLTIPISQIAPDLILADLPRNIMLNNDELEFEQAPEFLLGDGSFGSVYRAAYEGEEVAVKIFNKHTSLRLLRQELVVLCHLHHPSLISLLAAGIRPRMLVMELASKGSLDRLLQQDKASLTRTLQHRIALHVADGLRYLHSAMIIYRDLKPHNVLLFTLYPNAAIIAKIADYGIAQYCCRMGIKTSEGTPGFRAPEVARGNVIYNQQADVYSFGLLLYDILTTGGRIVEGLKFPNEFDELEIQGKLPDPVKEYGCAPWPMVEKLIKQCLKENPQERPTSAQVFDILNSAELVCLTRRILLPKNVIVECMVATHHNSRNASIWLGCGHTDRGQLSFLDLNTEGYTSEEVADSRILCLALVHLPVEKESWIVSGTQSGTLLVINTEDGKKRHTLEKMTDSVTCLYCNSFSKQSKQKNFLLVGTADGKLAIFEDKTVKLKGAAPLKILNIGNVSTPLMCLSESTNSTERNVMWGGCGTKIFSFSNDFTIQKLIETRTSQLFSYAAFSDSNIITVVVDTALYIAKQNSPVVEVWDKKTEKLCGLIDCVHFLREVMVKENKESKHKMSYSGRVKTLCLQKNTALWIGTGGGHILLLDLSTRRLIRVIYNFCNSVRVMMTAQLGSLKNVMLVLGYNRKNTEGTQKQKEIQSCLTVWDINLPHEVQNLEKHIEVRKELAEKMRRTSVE
# Chain of UniProt Q9Y5S2 (whole entry, looked up): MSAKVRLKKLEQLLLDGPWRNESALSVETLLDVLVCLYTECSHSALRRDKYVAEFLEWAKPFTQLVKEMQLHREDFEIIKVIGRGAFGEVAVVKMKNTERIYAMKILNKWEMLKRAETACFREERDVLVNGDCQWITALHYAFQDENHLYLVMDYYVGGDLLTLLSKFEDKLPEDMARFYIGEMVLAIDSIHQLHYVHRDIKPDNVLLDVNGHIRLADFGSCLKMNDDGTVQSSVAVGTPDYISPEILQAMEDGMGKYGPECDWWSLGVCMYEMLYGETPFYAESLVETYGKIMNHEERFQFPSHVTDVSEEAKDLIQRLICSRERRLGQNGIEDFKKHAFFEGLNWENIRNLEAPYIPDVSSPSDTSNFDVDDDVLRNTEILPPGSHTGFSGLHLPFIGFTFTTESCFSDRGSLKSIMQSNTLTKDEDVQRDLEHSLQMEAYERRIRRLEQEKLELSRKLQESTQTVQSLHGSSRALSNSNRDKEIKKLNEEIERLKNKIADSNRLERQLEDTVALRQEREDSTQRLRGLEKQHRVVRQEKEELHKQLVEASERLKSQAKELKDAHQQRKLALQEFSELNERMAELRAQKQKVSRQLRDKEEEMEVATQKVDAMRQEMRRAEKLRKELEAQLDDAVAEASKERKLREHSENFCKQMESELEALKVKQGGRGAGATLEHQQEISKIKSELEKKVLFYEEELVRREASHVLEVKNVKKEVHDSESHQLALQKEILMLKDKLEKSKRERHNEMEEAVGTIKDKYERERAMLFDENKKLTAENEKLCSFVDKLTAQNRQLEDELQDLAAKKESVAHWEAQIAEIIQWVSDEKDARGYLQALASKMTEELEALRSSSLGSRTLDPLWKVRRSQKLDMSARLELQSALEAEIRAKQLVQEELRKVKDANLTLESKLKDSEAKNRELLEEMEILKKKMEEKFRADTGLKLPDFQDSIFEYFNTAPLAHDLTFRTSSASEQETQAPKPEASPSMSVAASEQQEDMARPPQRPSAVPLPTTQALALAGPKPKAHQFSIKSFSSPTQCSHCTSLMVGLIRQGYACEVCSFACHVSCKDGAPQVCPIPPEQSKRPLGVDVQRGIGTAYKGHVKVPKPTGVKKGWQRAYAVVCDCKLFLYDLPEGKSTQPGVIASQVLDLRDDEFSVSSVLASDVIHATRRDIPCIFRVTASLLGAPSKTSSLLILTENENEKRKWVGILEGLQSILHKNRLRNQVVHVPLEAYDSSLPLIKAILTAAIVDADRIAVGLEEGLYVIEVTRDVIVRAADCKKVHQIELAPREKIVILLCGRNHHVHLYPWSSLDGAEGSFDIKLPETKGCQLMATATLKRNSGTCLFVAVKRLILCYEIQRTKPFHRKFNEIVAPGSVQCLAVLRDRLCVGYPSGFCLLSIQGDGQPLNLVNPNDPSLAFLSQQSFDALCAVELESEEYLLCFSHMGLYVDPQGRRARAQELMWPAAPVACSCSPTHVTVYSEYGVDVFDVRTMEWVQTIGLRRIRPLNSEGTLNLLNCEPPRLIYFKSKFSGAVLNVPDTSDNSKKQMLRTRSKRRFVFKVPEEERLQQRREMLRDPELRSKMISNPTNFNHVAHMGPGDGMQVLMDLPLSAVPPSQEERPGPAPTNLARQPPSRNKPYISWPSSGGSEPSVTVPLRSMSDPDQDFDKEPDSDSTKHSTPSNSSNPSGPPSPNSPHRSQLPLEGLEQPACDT
# Chain of UniProt O75676 (whole entry, looked up): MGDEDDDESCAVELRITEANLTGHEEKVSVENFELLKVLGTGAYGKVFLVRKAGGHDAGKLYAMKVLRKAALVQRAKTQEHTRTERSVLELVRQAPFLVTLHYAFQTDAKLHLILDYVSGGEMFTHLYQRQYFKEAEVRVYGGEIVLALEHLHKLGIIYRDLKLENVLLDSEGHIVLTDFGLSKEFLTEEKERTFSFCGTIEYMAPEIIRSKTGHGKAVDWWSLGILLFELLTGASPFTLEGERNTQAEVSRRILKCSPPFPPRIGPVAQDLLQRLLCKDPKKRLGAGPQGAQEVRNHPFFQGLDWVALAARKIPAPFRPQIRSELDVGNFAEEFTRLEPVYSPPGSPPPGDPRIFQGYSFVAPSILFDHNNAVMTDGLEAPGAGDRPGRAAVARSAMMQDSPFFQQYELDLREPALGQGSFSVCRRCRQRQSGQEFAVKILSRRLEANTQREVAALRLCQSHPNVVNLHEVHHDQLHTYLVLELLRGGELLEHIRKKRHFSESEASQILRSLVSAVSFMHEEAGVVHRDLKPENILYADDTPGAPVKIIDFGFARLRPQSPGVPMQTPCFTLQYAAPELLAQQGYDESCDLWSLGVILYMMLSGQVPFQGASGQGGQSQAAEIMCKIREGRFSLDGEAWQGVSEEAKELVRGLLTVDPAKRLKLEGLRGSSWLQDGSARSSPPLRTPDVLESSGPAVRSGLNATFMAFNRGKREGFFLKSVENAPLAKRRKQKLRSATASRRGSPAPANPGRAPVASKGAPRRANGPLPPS

# Set 1
# SMILES: Cc1nc(Nc2ncc(C(=O)Nc3c(C)cccc3Cl)s2)cc(N2CCN(CCO)CC2)n1
# Observed: enzyme activity
# Action: inhibitor
# Concentration: 0.5 µM
# Reference: control
target,remaining activity [%]
"TLK2 (Homo sapiens, UniProt Q86UE8)",94.4
"RPS6KA4 (Homo sapiens, UniProt O75676)",107
"PRKG2 (Homo sapiens, UniProt Q13237)",104
"CDC42BPB (Homo sapiens, UniProt Q9Y5S2)",98.8
"DCLK2 (Homo sapiens, UniProt Q8N568)",99.8
"TXK (Homo sapiens, UniProt P42681)",1.37
"PNCK (Homo sapiens, UniProt Q6P2M8)",102
"MAPK1 (Homo sapiens, UniProt P28482)",93.3
"MAP2K1 (Homo sapiens, UniProt Q02750)",120
"CLK4 (Homo sapiens, UniProt Q9HAZ1)",91.4
"MINK1 (Homo sapiens, UniProt Q8N4C8)",46.5
"NEK3 (Homo sapiens, UniProt P51956)",94.1
"Myosin-IIIb (MYO3B, Homo sapiens, UniProt Q8WXR4)",84.8
"MARK4 (Homo sapiens, UniProt Q96L34)",90.9

# Set 2
# Host: mouse
# Sample: microsomes or S9
# Concentration: 2 µM
# Time: 0.5 h
SMILES,remaining compound [%]
CN1CCN(C(=O)CCn2c(-c3ccccc3)cc3ccccc32)CC1,3.54
CCS(=O)(=O)CC(C)N(C)c1cnc(C#N)cn1 (centres unmarked),52.6
Nc1nc(N2CCN(c3ccccc3Cl)CC2)nc2ccccc12,0.761
COCCn1cc(C(=O)NCc2nc3ccccc3[nH]2)c2ccccc2c1=O,23.9
Clc1ccc(C2=NN(c3ccccc3)C(c3ccccc3Cl)C2)cc1 (centres unmarked),90.9
O=C1C=C(N(Cc2ccc(Cl)nc2)C2COC2)CO1,46.9
COc1ccc(-c2n[nH]c(-c3ccccn3)n2)cc1,4.5

# Set 3
# Structure (SMILES): Nc1c(C(=O)NCc2ccc(C(=O)NCCCC3CCCCC3)cc2)cnn1-c1ccccc1
# Observed: cell-free assay
# Method: competition with immobilised ligand
# Concentration: 0.1 µM
target,remaining binding [%]
"LRRK2 (Homo sapiens, UniProt Q5S007, G2019S)",100
"WEE2 (Homo sapiens, UniProt P0C1S8)",100
"NEK11 (Homo sapiens, UniProt Q8NG66)",94
"Ribosomal protein S6 kinase alpha-6, N-terminal kinase domain (RPS6KA6, Homo sapiens, UniProt Q9UK32)",100
"EPHB1 (Homo sapiens, UniProt P54762)",100
"NTRK3 (Homo sapiens, UniProt Q16288)",97
"STK33 (Homo sapiens, UniProt Q9BYT3)",96

# Single results of other studies
Structure (SMILES),system,setting,quantity,result
CC(C)n1cnc(-c2ccc(F)cc2)c1-c1ncc(C(=O)Nc2ccc(N3CCN(C)CC3)cc2)[nH]1,IPF patients,"60 mg once daily, adverse event",aortic valve incompetence incidence,0%

# Some of these lines once more (set 2):
SMILES,remaining compound [%]
COc1ccc(-c2n[nH]c(-c3ccccn3)n2)cc1,4.5
Clc1ccc(C2=NN(c3ccccc3)C(c3ccccc3Cl)C2)cc1 (centres unmarked),90.9
CN1CCN(C(=O)CCn2c(-c3ccccc3)cc3ccccc32)CC1,3.54
CCS(=O)(=O)CC(C)N(C)c1cnc(C#N)cn1 (centres unmarked),52.6
COCCn1cc(C(=O)NCc2nc3ccccc3[nH]2)c2ccccc2c1=O,23.9
